Measured values from different studies.
Lines come from different studies, so protocols differ. Several values in a cell are separate wells, animals, samples, runs or records. ± marks the error that the study gave.
Botulinum neurotoxin type A light chain: Botulinum neurotoxin type A, light chain (Clostridium botulinum, UniProt P0DPI0)
rep R3428I 3C-like proteinase: Replicase polyprotein 1ab, 3C-like proteinase (rep, Severe acute respiratory syndrome-related coronavirus, UniProt P0C6X7, R3428I)
Replicase polyprotein 1a R3428I 3C-like proteinase: Replicase polyprotein 1a, 3C-like proteinase (Severe acute respiratory syndrome-related coronavirus, UniProt P0C6U8, R3428I)
Ricin A chain: Ricin, A chain (Ricinus communis, UniProt P02879)

Sequences of proteins named here, by UniProt entry; tags and fusion partners are left off. Residues count along the entry.
UniProt P04757, 26-499 limits assumed: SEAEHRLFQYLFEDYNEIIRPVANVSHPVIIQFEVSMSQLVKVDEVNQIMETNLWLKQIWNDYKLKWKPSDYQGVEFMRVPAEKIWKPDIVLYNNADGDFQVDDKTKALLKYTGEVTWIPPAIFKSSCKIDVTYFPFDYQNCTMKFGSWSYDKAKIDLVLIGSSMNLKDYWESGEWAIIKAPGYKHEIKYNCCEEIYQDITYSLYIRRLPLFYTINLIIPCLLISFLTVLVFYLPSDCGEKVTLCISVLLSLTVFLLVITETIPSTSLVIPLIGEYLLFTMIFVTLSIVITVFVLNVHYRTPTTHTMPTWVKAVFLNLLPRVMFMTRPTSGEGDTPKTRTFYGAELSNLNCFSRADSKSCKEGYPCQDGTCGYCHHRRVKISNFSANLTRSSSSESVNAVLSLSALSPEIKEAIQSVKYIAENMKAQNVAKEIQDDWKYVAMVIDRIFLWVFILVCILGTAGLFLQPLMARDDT
UniProt P04757, whole entry, looked up: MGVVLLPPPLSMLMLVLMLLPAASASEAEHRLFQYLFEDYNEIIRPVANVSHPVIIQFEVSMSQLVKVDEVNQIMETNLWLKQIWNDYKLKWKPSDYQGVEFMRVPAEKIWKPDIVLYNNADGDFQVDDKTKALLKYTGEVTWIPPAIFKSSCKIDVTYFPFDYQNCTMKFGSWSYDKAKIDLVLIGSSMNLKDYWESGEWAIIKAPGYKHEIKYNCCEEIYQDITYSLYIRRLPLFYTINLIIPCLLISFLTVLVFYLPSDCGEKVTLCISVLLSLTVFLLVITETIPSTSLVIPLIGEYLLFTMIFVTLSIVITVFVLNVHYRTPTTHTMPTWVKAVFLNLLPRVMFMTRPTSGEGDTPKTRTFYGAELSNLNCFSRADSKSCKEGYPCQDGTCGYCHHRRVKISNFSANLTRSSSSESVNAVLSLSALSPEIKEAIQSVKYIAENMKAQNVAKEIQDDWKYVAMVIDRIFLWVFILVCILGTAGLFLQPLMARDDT
UniProt P12390, 25-500 limits assumed: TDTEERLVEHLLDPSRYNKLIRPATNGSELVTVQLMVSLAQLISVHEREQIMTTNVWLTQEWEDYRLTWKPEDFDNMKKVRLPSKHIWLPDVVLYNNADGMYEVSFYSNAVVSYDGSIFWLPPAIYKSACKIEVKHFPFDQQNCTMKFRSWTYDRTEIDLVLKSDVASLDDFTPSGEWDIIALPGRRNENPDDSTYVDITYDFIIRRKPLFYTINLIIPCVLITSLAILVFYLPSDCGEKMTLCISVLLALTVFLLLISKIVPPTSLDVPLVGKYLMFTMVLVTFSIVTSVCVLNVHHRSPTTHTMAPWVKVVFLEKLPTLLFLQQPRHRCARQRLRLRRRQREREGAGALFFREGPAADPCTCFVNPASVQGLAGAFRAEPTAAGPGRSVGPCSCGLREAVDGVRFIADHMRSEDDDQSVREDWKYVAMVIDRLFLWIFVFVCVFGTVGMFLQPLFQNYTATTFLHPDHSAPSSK
UniProt P12390, whole entry, looked up: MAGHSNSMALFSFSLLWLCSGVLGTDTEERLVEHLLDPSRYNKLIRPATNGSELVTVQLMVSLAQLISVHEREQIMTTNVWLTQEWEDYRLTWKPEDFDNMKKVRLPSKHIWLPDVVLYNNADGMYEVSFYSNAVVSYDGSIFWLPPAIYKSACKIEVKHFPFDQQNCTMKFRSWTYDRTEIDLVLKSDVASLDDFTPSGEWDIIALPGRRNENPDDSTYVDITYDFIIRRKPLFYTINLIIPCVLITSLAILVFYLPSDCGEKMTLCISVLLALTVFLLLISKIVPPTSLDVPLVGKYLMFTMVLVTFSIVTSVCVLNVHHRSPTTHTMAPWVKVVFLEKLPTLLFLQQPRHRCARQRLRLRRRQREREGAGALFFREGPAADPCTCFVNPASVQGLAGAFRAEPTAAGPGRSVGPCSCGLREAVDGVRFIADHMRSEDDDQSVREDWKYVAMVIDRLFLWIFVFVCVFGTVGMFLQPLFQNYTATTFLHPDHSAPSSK
UniProt P43143, whole entry M241L/F253L/V303I/V320I/I327V/A333T/K339T, looked up: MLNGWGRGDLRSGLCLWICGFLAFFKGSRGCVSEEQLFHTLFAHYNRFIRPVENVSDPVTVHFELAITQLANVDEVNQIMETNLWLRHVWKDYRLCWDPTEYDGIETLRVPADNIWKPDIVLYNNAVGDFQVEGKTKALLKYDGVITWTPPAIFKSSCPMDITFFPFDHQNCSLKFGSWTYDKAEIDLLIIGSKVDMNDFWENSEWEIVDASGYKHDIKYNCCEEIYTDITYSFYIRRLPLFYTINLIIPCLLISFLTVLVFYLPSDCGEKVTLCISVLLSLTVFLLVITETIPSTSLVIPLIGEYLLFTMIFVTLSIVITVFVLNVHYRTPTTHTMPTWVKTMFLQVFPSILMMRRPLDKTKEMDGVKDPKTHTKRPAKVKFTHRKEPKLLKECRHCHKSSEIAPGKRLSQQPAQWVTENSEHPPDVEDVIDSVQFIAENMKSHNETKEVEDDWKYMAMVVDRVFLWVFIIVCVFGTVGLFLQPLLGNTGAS
UniProt Q9GZZ6, 25-450 limits assumed: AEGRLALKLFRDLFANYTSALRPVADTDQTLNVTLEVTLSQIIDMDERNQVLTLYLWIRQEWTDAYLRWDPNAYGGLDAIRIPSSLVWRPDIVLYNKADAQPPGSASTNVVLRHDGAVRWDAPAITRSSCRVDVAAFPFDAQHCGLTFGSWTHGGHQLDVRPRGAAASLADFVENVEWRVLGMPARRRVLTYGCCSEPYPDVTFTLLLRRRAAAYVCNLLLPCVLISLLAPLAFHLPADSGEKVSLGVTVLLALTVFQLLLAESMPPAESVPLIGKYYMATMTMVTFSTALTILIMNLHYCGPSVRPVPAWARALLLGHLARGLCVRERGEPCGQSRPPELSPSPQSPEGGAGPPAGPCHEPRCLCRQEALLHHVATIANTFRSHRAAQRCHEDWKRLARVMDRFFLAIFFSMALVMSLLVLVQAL
UniProt Q9UGM1, 26-479 limits assumed: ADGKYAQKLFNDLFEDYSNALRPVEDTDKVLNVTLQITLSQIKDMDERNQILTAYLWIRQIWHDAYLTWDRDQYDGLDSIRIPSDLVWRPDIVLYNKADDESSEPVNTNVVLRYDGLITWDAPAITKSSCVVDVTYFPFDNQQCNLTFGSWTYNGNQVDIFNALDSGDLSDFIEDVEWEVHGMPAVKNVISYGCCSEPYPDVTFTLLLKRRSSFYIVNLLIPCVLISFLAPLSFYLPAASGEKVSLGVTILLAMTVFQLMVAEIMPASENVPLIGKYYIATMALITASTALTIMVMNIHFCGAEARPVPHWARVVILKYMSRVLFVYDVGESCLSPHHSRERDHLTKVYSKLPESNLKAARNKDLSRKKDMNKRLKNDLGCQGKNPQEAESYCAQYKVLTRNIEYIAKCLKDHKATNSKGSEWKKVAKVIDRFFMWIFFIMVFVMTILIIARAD
UniProt P35372, whole entry: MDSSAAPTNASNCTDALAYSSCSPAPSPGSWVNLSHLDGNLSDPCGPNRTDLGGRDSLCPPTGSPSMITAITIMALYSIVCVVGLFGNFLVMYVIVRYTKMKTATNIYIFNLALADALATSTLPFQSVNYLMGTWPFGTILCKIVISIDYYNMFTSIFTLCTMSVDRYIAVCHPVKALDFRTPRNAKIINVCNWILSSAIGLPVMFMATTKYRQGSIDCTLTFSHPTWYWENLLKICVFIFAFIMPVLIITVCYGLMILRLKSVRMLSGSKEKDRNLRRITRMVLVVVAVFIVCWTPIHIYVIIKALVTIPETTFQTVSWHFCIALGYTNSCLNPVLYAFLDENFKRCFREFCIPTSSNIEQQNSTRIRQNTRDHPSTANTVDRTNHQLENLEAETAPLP
UniProt Q05941, 23-502 limits assumed: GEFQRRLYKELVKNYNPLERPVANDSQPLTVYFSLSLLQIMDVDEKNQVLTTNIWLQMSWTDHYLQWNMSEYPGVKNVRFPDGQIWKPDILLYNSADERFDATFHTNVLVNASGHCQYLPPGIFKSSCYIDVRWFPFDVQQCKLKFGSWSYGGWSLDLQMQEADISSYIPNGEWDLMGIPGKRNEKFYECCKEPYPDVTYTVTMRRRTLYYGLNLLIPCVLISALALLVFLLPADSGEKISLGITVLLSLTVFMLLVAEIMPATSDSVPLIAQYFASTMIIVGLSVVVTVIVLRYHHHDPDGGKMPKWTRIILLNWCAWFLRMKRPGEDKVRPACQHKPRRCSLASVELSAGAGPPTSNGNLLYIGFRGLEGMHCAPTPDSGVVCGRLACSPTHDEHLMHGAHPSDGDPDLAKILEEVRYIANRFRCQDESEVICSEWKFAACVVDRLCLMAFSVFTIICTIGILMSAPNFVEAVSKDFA

`O=C(O)c1cc(-c2ccc(-c3c(-c4ccc5c(c4)OCO5)noc3-c3ccsc3)cc2)nc2ccccc12` gave an IC50 of 130 µM (Botulinum neurotoxin type A light chain; inhibitor, FRET, YFP-SNAP25-CFP substrate; no reducing agent).
`O=C(/C=C/c1ccccc1)N[C@@H](COC(=O)Cc1ccccc1)C(=O)NC1CCCCC1` has an IC50 of 650 µM (rep R3428I 3C-like proteinase; enzyme activity, inhibitor, HPLC substrate depletion; pH 4.0).
With `CC(C)C[C@@H]1NC(=O)[C@H](CCC(N)=O)NC(=O)[C@@H]2CCCN2C(=O)[C@H](Cc2c[nH]cn2)NC(=O)[C@H](CC(N)=O)NC(=O)[C@H](C(C)C)NC(=O)[C@H](CO)NC(=O)[C@@H]2CSSC[C@H](NC(=O)CN)C(=O)N[C@@H](CSSC[C@@H](C(N)=O)NC1=O)C(=O)N[C@@H](CO)C(=O)N[C@@H](Cc1c[nH]cn1)C(=O)N1CCC[C@H]1C(=O)N[C@@H](C)C(=O)N2` the IC50 was 0.0144 µM (Chrna3/Chrnb2/Chrna6, with beta3 subunit (Rattus norvegicus, UniProt P04757+P12390+P43143); ion current, antagonist, two-electrode voltage clamp; Xenopus laevis oocytes; together with: 100 µM acetylcholine).
`CSCC[C@H](NC(=O)[C@@H](N)CC(=O)O)C(=O)NCC(=O)N[C@@H](Cc1ccccc1)C(=O)NCC(=O)N[C@@H](CC(C)C)C(=O)N[C@@H](Cc1ccccc1)C(=O)N[C@@H](CC(=O)O)C(=O)O` gave an IC50 of 23 ± 4 µM (Shiga-like toxin 2 subunit A, A1 fragment (UniProt P09385); ribosome depurination; yeast ribosomes; pH 7.4).
`O=C(/C=C/c1ccccc1)N[C@@H](c1ccccc1)[C@@H](O)C(=O)NC1CCCCC1` gave an IC50 of > 500 µM (Replicase polyprotein 1a R3428I 3C-like proteinase; enzyme activity, inhibitor; pH 4.0).
`COc1ccc(C(=O)c2cnc3c(=O)[nH]c(N)nc3n2)cc1`: IC50 “no inhibition” (Ricin A chain; recovery of translation, inhibitor, in vitro luciferase translation; rabbit reticulocyte lysate).
`O=C1/C(=C2\Nc3ccccc3C2=O)Nc2ccccc21` gave an IC50 of 752 µM and 724 µM (Replicase polyprotein 1ab, 3C-like proteinase (rep, Severe acute respiratory syndrome-related coronavirus, UniProt P0C6X7); 3CLpro cleavage, inhibitor, luciferase reporter; Vero).
The IC50 of `COc1ccc(OCC(=O)N[C@H](C(=O)N[C@@H](CC(C)C)C(=O)N[C@@H](C[C@@H]2CCNC2=O)C(=O)c2nc3ccccc3s2)C(C)C)cc1` is reported as 0.92 µM (rep R3428I 3C-like proteinase; enzyme activity, inhibitor, HPLC; 60 min, 37 °C, together with: substrate 111 µM).
`C[C@@H]1NC(=O)[C@H](CCCNC(=N)N)NC(=O)[C@H](CCCNC(=N)N)NC(=O)[C@H](Cc2c[nH]cn2)NC(=O)[C@H](CO)NC(=O)[C@H](CCCCN)NC(=O)[C@@H]2CSSC[C@H](NC(=O)CN)C(=O)N[C@@H](CSSC[C@@H](C(N)=O)NC(=O)[C@H](CCCNC(=N)N)NC1=O)C(=O)N[C@@H](CO)C(=O)N[C@@H](Cc1c[nH]cn1)C(=O)N1CCC[C@H]1C(=O)N[C@@H](C)C(=O)N2` has an IC50 of 0.133 µM (Neuronal acetylcholine receptor; alpha9/alpha10 (Homo sapiens, UniProt Q9GZZ6+Q9UGM1); ion current, antagonist, two-electrode voltage clamp; Xenopus oocytes; holding -70 mV, together with: 100 µM acetylcholine).
`CC(C)C[C@@H]1NC(=O)[C@H](CCC(=O)O)NC(=O)[C@@H]2CCCN2C(=O)[C@H](Cc2c[nH]cn2)NC(=O)[C@H](CC(N)=O)NC(=O)[C@H](C(C)C)NC(=O)[C@H](Cc2ccc(O)cc2)NC(=O)[C@@H]2CSSC[C@H](NC(=O)CN)C(=O)N[C@@H](CSSC[C@@H](C(N)=O)NC1=O)C(=O)N[C@@H](CO)C(=O)N[C@@H](Cc1c[nH]cn1)C(=O)N1CCC[C@H]1C(=O)N[C@@H](C)C(=O)N2` gave an IC50 of 0.00918 µM (Neuronal acetylcholine receptor; alpha3/beta2 (Rattus norvegicus, UniProt P04757+P12390); ion current, antagonist, two-electrode voltage clamp; Xenopus laevis oocytes; together with: 100 µM acetylcholine).
`CC[C@H](C)[C@H](NC(=O)[C@H](Cc1ccc(O)cc1)NC(=O)[C@H](CO)NC(=O)[C@H](CCC(=O)O)NC(=O)[C@H](CC(N)=O)NC(=O)[C@H](CC(C)C)NC(=O)[C@H](C)NC(=O)[C@H](CCCCN)NC(=O)[C@@H](NC(=O)[C@@H](NC(=O)[C@H](CCC(N)=O)NC(=O)[C@H](CCC(N)=O)NC(=O)[C@H](CC(C)C)NC(=O)[C@H](CO)NC(=O)[C@H](CC(C)C)NC(=O)[C@H](CCSC)NC(=O)[C@H](CCC(=O)O)NC(=O)[C@H](Cc1ccc(O)cc1)NC(=O)[C@@H](NC(=O)[C@H](CC(C)C)NC(=O)[C@H](CC(=O)O)NC(=O)[C@H](CC(C)C)NC(=O)[C@H](CC(C)C)NC(=O)[C@@H](NC(=O)[C@@H](NC(=O)[C@H](CC(N)=O)NC(=O)[C@@H](NC(=O)[C@H](CCC(N)=O)NC(=O)[C@@H](NC(=O)[C@H](CC(C)C)NC(=O)[C@@H](N)CO)[C@@H](C)O)[C@@H](C)CC)[C@@H](C)O)[C@@H](C)O)[C@@H](C)O)C(C)C)C(C)C)C(=O)N[C@@H](CC(=O)O)C(=O)N[C@@H](CC(C)C)C(=O)N[C@@H](CCCCN)C(=O)N[C@@H](CCC(=O)O)C(=O)N[C@@H](CC(C)C)C(=O)O` gave an IC50 of ~0.8 µM and 0.8 µM (Spike glycoprotein (MERS-CoV, UniProt K9N5Q8); spike-mediated cell-cell fusion; 293T/MERS/EGFP with Huh-7; 4 h).
`CC(=O)N[C@@H](Cc1c[nH]cn1)C(=O)OC[C@H](NC(=O)/C=C/c1ccccc1)C(=O)NC1CCCCC1` gave an IC50 of > 3200 µM (rep R3428I 3C-like proteinase; enzyme activity, inhibitor, HPLC substrate depletion; pH 4.0).
The IC50 of `COc1cc(/C=C/C(=O)O[C@@H](C(=O)NC2CCCCC2)[C@@H](NC(=O)/C=C/c2ccccc2)c2ccccc2)cc(OC)c1` is reported as 125 µM (Replicase polyprotein 1a R3428I 3C-like proteinase; enzyme activity, inhibitor; pH 4.0).
`NC(=O)c1cnc2c(=O)[nH]c(N)nc2n1` — result for IC50: “no inhibition” (Ricin A chain; recovery of translation, inhibitor, in vitro luciferase translation; rabbit reticulocyte lysate).
`CCc1ccc(CN2CCC(n3nccc3NC(=O)c3ccc4c(c3)OCO4)CC2)cc1` has an IC50 of 26 ± 11 µM (Botulinum neurotoxin type A light chain; inhibitor, FRET, SNAPtide substrate; no reducing agent).
`COc1ccccc1/C=C/C(=O)N[C@@H](COC(=O)c1ccccc1)C(=O)NC1CCCCC1` gave an IC50 of 155 µM (rep R3428I 3C-like proteinase; enzyme activity, inhibitor, HPLC substrate depletion; pH 4.0).
With `CC(C)C[C@H](NC(=O)[C@@H](NC(=O)COc1ccccc1)C(C)C)C(=O)N[C@@H](C[C@@H]1CCNC1=O)C(=O)c1nccs1` the IC50 was 6.8 µM (rep R3428I 3C-like proteinase; enzyme activity, inhibitor, HPLC; 60 min, 37 °C, together with: substrate 111 µM).
For `COc1cc(/C=C/C(=O)N[C@H](COC(=O)c2ccccc2)C(=O)NC2CCCCC2)cc(OC)c1`, the IC50 was 80 µM (rep R3428I 3C-like proteinase; enzyme activity, inhibitor, HPLC substrate depletion; pH 4.0).
With `C=C1C(=O)O[C@H]2[C@H]1CC/C(C)=C/CC[C@@]1(C)O[C@@H]21` the IC50 was 0.66 µM (Replicase polyprotein 1ab, main protease (rep, Severe acute respiratory syndrome coronavirus 2, UniProt P0DTD1); luciferase reporter, inhibitor; SARS-CoV-2; 48 h).
The IC50 of `C=C(COC(C)=O)[C@@H]1CCC(C)=C[C@H]1c1c(O)cc(CCCCC)cc1O` is reported as 0.619 µM (Mu-type opioid receptor (OPRM1, Homo sapiens, UniProt P35372); cAMP level, antagonist; HEK293 expressing human µ-opioid receptor; together with: fentanyl 500 pM (EC95)).
The IC50 of `CC(C)C[C@H](NC(=O)[C@@H](NC(=O)CNCc1ccccc1)C(C)C)C(=O)N[C@@H](C[C@@H]1CCNC1=O)C(=O)c1nc2ccccc2s1` is reported as 7.5 µM (rep R3428I 3C-like proteinase; enzyme activity, inhibitor, HPLC; 60 min, 37 °C, together with: substrate 111 µM).
For `O=C(/C=C/c1ccccc1)N[C@@H](COC(=O)CCc1ccccc1)C(=O)NC1CCCCC1`, the IC50 was 120 µM (rep R3428I 3C-like proteinase; enzyme activity, inhibitor, HPLC substrate depletion; pH 4.0).
`O=C(c1ccc2c(c1)OCO2)C1CCCN(C2CCN(CCc3ccccc3)CC2)C1` (centres unmarked) has an IC50 of 0.1 µM (Botulinum neurotoxin type A light chain; inhibitor, FRET, YFP-SNAP25-CFP substrate; no reducing agent).
`CC(C)(C)C(=O)OC[C@H](NC(=O)/C=C/c1ccccc1)C(=O)NC1CCCCC1` gave an IC50 of 450 µM (rep R3428I 3C-like proteinase; enzyme activity, inhibitor, HPLC substrate depletion; pH 4.0).
`CC[C@H](C)[C@@H]1NC(=O)[C@H](CCC(=O)O)NC(=O)[C@@H]2CCCN2C(=O)[C@H](Cc2c[nH]cn2)NC(=O)[C@H](CCCCC(=O)O)NC(=O)[C@H](CC(C)C)NC(=O)[C@H](Cc2c[nH]cn2)NC(=O)[C@@H]2CSSC[C@H](NC(=O)CN)C(=O)N[C@@H](CSSC[C@@H](C(N)=O)NC1=O)C(=O)N[C@@H](CO)C(=O)N[C@@H](Cc1c[nH]cn1)C(=O)N1CCC[C@H]1C(=O)N[C@@H](C)C(=O)N2` gave an IC50 of 0.0345 µM (Neuronal acetylcholine receptor subunit alpha-7 (Chrna7, Rattus norvegicus, UniProt Q05941); ACh-evoked current, antagonist, two-electrode voltage clamp; Xenopus laevis oocytes; together with: ACh 300 µM).
`CC(C)C[C@H](NC(=O)[C@@H](NC(=O)Oc1ccccc1)C(C)C)C(=O)N[C@@H](C[C@@H]1CCNC1=O)C(=O)c1nccs1` gave an IC50 of 85 µM (rep R3428I 3C-like proteinase; enzyme activity, inhibitor, HPLC; 60 min, 37 °C, together with: substrate 111 µM).

For quick reference, copied from above:
The IC50 of `COc1ccc(OCC(=O)N[C@H](C(=O)N[C@@H](CC(C)C)C(=O)N[C@@H](C[C@@H]2CCNC2=O)C(=O)c2nc3ccccc3s2)C(C)C)cc1` is reported as 0.92 µM (rep R3428I 3C-like proteinase; enzyme activity, inhibitor, HPLC; 60 min, 37 °C, together with: substrate 111 µM).
For `COc1cc(/C=C/C(=O)N[C@H](COC(=O)c2ccccc2)C(=O)NC2CCCCC2)cc(OC)c1`, the IC50 was 80 µM (rep R3428I 3C-like proteinase; enzyme activity, inhibitor, HPLC substrate depletion; pH 4.0).
With `CC(C)C[C@@H]1NC(=O)[C@H](CCC(N)=O)NC(=O)[C@@H]2CCCN2C(=O)[C@H](Cc2c[nH]cn2)NC(=O)[C@H](CC(N)=O)NC(=O)[C@H](C(C)C)NC(=O)[C@H](CO)NC(=O)[C@@H]2CSSC[C@H](NC(=O)CN)C(=O)N[C@@H](CSSC[C@@H](C(N)=O)NC1=O)C(=O)N[C@@H](CO)C(=O)N[C@@H](Cc1c[nH]cn1)C(=O)N1CCC[C@H]1C(=O)N[C@@H](C)C(=O)N2` the IC50 was 0.0144 µM (Chrna3/Chrnb2/Chrna6, with beta3 subunit (Rattus norvegicus, UniProt P04757+P12390+P43143); ion current, antagonist, two-electrode voltage clamp; Xenopus laevis oocytes; together with: 100 µM acetylcholine).
